Experimental data gathered from unrelated publications.
Each numbered part is a random draw from the data of one study; scales do not carry over between parts. Substitutions count along the parent as printed.
Chain of UniProt P30530 (whole entry, looked up): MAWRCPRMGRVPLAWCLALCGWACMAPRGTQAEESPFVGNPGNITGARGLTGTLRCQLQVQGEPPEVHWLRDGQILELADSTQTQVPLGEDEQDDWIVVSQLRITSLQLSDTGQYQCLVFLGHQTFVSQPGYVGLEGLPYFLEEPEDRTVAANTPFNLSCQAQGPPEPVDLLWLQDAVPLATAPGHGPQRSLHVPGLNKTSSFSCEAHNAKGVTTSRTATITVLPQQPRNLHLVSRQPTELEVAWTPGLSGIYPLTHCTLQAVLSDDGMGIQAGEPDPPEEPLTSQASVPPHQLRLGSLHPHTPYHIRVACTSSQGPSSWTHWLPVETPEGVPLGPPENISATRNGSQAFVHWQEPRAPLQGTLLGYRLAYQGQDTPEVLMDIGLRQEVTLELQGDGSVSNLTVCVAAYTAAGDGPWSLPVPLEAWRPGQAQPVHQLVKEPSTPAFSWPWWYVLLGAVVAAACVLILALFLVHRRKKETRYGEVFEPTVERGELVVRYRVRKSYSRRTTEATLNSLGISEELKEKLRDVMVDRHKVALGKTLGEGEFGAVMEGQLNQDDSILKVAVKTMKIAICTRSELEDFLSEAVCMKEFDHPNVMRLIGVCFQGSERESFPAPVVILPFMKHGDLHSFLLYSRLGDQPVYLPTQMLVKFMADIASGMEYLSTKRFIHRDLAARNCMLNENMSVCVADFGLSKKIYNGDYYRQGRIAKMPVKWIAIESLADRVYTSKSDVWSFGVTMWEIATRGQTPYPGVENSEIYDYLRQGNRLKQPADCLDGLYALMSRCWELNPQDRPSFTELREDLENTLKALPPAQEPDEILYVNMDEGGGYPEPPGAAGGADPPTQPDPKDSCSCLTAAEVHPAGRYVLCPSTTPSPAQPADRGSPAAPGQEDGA

Sample 1
Substitution: R45E
Target: ABI1, truncated, D143A, DHFR fusion (Arabidopsis thaliana)
Method: DHFR PCA, deep sequencing
Matrix: yeast
Setting: methotrexate growth selection, single substitutions
Baseline: wild-type fitted maximum
Reading: higher = stronger binding
Measurement: relative binding score
Starting sequence: PYL1, truncated, DHFR fusion (Arabidopsis thaliana); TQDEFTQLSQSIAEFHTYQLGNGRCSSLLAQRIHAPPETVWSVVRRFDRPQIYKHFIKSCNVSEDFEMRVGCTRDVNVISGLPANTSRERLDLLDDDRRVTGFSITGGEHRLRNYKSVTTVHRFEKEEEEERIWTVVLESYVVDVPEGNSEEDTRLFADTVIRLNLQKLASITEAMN
added: (+)-ABA 0.39 µM: -16.9%
added: (+)-ABA 58 µM: -5.98%
added: (+)-ABA 200 µM: 11%
added: (+)-ABA 710 µM: 46.7%
added: (+)-ABA 0.0091 µM: 1.08%
added: (+)-ABA 17 µM: 4.64%

Sample 2
Target: RNA binding protein fox-1 homolog 2, RRM domain, GST-SBP tag (RBFOX2, Homo sapiens, UniProt O43251-10, residues 100-194)
Method: RNA Bind-n-Seq
Molecule type: RNA
Matrix: in vitro
Concentration: 365 nM
Setting: natural RNA segment, single round, ends assumed
Baseline: no-protein control
Reading: higher = stronger binding
Measurement: RBNS enrichment (R)
All sequences stand within: GGGAGUUCUACAGUCCGACGAUC … UGGAAUUCUCGGGUGCCAA
Residues (chain): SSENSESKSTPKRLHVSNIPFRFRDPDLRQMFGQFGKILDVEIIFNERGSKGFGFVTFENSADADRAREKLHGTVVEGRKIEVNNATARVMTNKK
CUUUGAAGAUCUUCAUGGCUGCUGUGAGACCCUGCUUUGGCAGCACCGAGUCACCUGGUGAGCCUCAGGCUGGCACACCGAAGUUGUGCCGUGCUUACGUUAUUUAUUAG: 0.212
UGUGGUAGAGUCUGGGACCAACUCAAAAACGGAACAAGGAGUGAUGAUGUAUGAACACAAAACCCAAUAAAAAUCUUUGAAUAGGAGCCUGGAAGCUCAAGAAGAAAAUG: 0.961
UCUCAAGAGAGGAAGGACAAAACUGUUACAAGCUGAAAUAUUUGGGGAUUUGUUUGACUUGACUAGGGAACCACAAGUUUUCAUAUAAUGCCUGAUUUAGCCCUGUGCCU: 0.837
GGGCUUCUCAGAGGUGGAGCUGGUGCAGAUGGUGGUGGACGGAGUGAAGCUGCUCAUCGAGAUGGAGCAGCGGCUGGAGCAGGGCCAGGCCAUCGACGACCUCAUGCCUG: 1.1
AUAUGUAGAUGGCCAACCGACUUUUUAAUAUUUUGUAAAUAAAUUGGGAUUCUGUGUGUCCUCUGUGCUAGUAGUCCAGGACAGGAAUGUAAAGUCAGAAUGCGGGGCCA: 15.5
UCAGGAUAAAGCACGGAUGGAUAAAGAAUAUUUGUCCCUUAUGGCUGAGCUAGGGGAAGCUCCUGUCCCUGCAUCUGUGGGCUCUACCUCUGGGCCUGCCACCACGCCCC: 1.84
GCUUAGUCAGCGUAGGAAUCCUCACUAAAGCAGAAGAAGUUCCAUUCAAAGUGCCAAUGAUAGAGUCAACAGGAAGGUUAAUGUUGGAAACACAAUCAGGUGUGGAUUGG: 0.411
AAAAGAAAGGUACAAUGGAAACACUCAUAGACUGACACCAUUAUCAUUAACUAAGAAUAAUAAAUUUGCUCCUAUCCUGGGUCACGUGCCACGGUAAGAUGUAUAGUAUG: 0.27

Sample 3
Target: POU, POU domain (Salpingoeca helianthica)
Method: Spec-seq
Molecule type: double-stranded DNA, one strand shown
Matrix: in vitro
Concentration: not given
Setting: whole probe, mean of replicates
Baseline: not given
Reading: lower = stronger binding
Measurement: relative binding energy
All sequences stand within: GAGTCGTCTCGTCAGCAC … CCGTAGAGCACTCAGGTC
Residues (chain): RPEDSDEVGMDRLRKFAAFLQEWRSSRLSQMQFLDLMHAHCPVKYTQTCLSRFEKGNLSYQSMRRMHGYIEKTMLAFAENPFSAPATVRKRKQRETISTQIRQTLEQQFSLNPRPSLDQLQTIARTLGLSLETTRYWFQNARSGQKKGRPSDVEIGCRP
TGGGTAAT: 0.68 ln ratio
ATGCTTCT: 1.16 ln ratio
ATCGGCAT: 1.27 ln ratio
ATAATGAT: -0.139 ln ratio
ATGCCGGG: 1.28 ln ratio
CGACTAAT: 0.774 ln ratio
ATAAGGAT: 1.18 ln ratio
ATATCCAT: 1.15 ln ratio

Sample 4
Target: CCNB3, cyclin fold, Cln2 fusion (human)
Method: yeast growth competition, sequencing
Matrix: yeast
Setting: strong parent motif
Baseline: not given
Reading: higher = stronger binding
Measurement: normalised enrichment score
Starting sequence: viral docking peptide; TSVRRALFTGGSD; partner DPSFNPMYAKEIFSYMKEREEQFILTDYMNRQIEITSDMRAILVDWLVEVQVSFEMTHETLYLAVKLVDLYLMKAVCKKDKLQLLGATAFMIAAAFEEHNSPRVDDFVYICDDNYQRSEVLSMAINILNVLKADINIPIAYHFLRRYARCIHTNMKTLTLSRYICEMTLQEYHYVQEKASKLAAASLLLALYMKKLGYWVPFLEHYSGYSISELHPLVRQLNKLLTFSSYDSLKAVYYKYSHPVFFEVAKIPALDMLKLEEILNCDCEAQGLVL
TSVRRQLFTGGSD [A6Q]: 2.55
TAVRRALFTGGSD [S2A]: 1.1
TSVERALFTGGSD [R4E]: -0.057
TSVRTALFTGGSD [R5T]: 0.19
TSDRRALFTGGSD [V3D]: 0.00322
TSVGRALFTGGSD [R4G]: -0.25
TSVCRALFTGGSD [R4C]: 0.489
TSVRRALFTGGPD [S12P]: 2.08
TSVRRACFTGGSD [L7C]: 0.0718
TSVRRALYTGGSD [F8Y]: 0.2
TSVRRALFAGGSD [T9A]: 1.25
TRVRRALFTGGSD [S2R]: 1.82
TSVRRALFTGGHD [S12H]: 1.68
TSVRRALDTGGSD [F8D]: -0.21
TSVRRALFTGASD [G11A]: 1.54
TSVRWALFTGGSD [R5W]: 0.4
TSVRRALFTGGYD [S12Y]: 1.72
TSVRVALFTGGSD [R5V]: 0.167

Further values, each from its own experiment
P1: PafA, mature enzyme, eGFP fusion (Elizabethkingia meningoseptica, UniProt Q9KJX5); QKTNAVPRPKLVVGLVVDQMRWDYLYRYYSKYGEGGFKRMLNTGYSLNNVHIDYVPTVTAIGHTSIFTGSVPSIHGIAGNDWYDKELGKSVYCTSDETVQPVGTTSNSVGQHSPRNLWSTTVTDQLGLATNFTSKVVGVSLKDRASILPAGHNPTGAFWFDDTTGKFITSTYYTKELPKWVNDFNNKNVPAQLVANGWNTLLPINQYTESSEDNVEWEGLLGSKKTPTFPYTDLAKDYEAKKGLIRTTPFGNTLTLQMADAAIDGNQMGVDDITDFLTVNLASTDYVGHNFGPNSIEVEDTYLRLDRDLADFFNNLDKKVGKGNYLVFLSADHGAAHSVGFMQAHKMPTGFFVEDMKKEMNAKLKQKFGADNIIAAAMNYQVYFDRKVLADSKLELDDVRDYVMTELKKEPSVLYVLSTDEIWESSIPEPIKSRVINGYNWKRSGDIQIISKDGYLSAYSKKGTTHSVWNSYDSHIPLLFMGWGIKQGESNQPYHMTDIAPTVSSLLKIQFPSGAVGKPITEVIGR
P1 L220V — oxyanion analog dissociation constant (tungstate, free oxyanion; microfluidic competitive inhibition; in vitro, cell-free expressed; not given, derived from inhibition constants, unchanged parent 2230 nM; lower = stronger binding): 2640 nM
COC(=O)c1cc(N(C)C(=O)c2ccn3ncc(-c4ccc(C(=O)O)cc4)c3c2)ccc1Cl — IC50 (AXL (Homo sapiens, UniProt P30530); enzyme activity, inhibitor): > 30 µM

Some of these lines once more (sample 3):
ATGCTTCT: 1.16 ln ratio
ATCGGCAT: 1.27 ln ratio
ATAATGAT: -0.139 ln ratio
ATGCCGGG: 1.28 ln ratio
CGACTAAT: 0.774 ln ratio
ATAAGGAT: 1.18 ln ratio
ATATCCAT: 1.15 ln ratio
